# Experimental data gathered from unrelated publications.
# Each numbered part is a random draw from the data of one study; scales do not carry over between parts. Substitutions count along the parent as printed.

# Set 1
# Target: Interferon regulatory factor 7, full length, phosphomimetic (IRF7, Homo sapiens, UniProt Q92985, residues 1-503, S101K/S471D/S472D/S475D/S476D/S477D/S483D/S484D/S487D)
# Method: protein-binding microarray
# Form: double-stranded DNA, one strand shown
# Medium: in vitro
# Tested at: 250 nM
# Setting: 60-bp whole probe
# With: salmon DNA 0.4 mg/ml
# Baseline: random background probes
# Reading: higher = stronger binding
# Shared flanks, not repeated: GCCTAGCAC … GTCTTGATTCGCTTGACGCTGCTG
# Construct (chain): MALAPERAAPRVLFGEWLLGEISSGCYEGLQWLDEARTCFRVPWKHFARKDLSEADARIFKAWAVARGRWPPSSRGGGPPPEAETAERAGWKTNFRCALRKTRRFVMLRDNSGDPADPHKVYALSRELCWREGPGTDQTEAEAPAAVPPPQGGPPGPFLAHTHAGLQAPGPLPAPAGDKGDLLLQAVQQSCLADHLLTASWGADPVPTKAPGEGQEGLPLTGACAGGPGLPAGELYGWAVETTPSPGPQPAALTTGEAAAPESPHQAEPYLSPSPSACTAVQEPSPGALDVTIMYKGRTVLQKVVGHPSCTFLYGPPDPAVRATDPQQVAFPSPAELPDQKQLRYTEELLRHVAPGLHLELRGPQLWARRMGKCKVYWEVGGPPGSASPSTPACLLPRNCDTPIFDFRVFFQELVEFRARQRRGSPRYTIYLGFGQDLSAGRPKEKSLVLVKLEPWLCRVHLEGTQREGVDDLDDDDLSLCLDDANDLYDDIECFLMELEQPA
Sequence,log fluorescence [z-score]
GACGGTATCGGGACGGGGGACGTGCTA,1.67
TCATGCTTAGTATTTTTTACTGTGCTA,-0.234
TTAGTTTTCGGGTATCGATTAGTGCTA,3.73
GACGATATCAGTTTCGCGACGTGCTAG,1.14
GATTTTTTTCATATATATATGTGCTAG,1.05
GAGGGTTTCGGGTATCGGGACGTGCTA,5.61
TCACTTCTGGACTGTTTGACTGTGCTA,0.414
TTAGGACTGAGGTATCGGTTAGTGCTA,0.797
TTAGAGTTCGGGTTTCGATTAGTGCTA,7.04
CTCTATTGCTTTCTCTTTCAGTGCTAG,0.831
ATAGGTTTCGACTATCGGTTAGTGCTA,5.68
GACGATATCAGTCTCGAGATGTGCTAG,0.646
TTAGTTTCCGGTTTCGGTTAGTGCTAG,12.8
TTATAACTGAGTATCGATTAGTGCTAG,1.02
GATGATATCAGTCTCGAGACGTGCTAG,0.268
AGGAATTTCCCACTTTCACTGTGCTAG,2.61

# Set 2
# Target: RNA binding protein fox-1 homolog 2, RRM domain, GST-SBP tag (RBFOX2, Homo sapiens, UniProt O43251-10, residues 100-194)
# Method: RNA Bind-n-Seq
# Form: RNA
# Medium: in vitro
# Tested at: 365 nM
# Setting: natural RNA segment, single round, ends assumed
# Baseline: no-protein control
# Reading: higher = stronger binding
# Shared flanks, not repeated: GGGAGUUCUACAGUCCGACGAUC … UGGAAUUCUCGGGUGCCAA
# Construct (chain): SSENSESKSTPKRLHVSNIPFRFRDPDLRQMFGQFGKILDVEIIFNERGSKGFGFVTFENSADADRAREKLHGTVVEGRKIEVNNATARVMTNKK
Sequence,RBNS enrichment (R)
AGACUUAAGUUUUGUGGGCACUGGAAGUCACUUUGAUAGAUGGAUUGAAACUGUUCCUAUUUGCCCUGGGACGGUUUCUAUCUAUCAAAGGAAGGUUUUCACCUGUAGAA,0.596
UCUGAGGGUAAAGCCGGUGGGAGGCUCAGCAGGCCAGGAGGCCCAAGGACAGGACUUGCGACCUUGAAGCCAAAGGAAUCUCACUUGUGGGGCCUCCUUGUCAGCUCUGC,0.415
CUGUGCUCUGUGUCUGCAUGAAGGCUCAGCCUUUAGAGGCACUCCUUCUAGUUGCAUUAGUACUGUCUUUCUGUGGAGUUUGGUUUGAAGACUGGCUCAGCAAGUGGAGG,2.61
CGUGUGCUUUUGUAGAGUUUAACAUCUGGUGUUUUUCUGAAAUAUAUAUAAAUAUAUAUCUAUAAACAUAUAUUGCUUUAUUUGAAACAAAUUAAAAUAUGCUGCAUUUG,1.43
ACUGGUGCUGUGCUCCAGCCUUAUCAGUUAGGGGACCCAAGGUUUGUUUGGGACCUGGGUACAGGUAAAAGCCAGACUUGGCAGGGACCCCUCUUUCUAGGCUGAACCUU,0.19
GCUGGCCUUCGAGGGCGAGGCCGCCUGCCGGGCCUUCCUAGAGCCCCUGGGCCUGGCCUACACGGGCCCGGACAACUCCAGCAUCGACUGCCGCCUCAGCCUGGCGCAGC,0.416
AAAGAAUAUUUAUUUAAAGAGGGAAGUGUAGACUUCUUACUGUAAAAUAUGUGAUUCCAGGCUUAAGAAAUUGAUUAUAUUUUAAAAUAAUUAUUUUUUUAAAAACGUAA,1.1
AUUUGGGGCAAAGCCAUUCAACAAGUCUGUAGGAAGUUCCAAACUUUCCCACAUUUUCCUGUUUUCUUCUGAGCCCUCCAAACUGUUCCAGCCUCUGCCUGUUACCCAGU,0.57
GCUGACCCUGCCCUGCCAGCUGAGACUGGGAGACGGAGUGGGCUCUGAUCCCAGGGCUUCCAGGAAAGCUCUGGCUUUGGAGCAGAAGCGGGUUCUAGGACUUAGUGCCC,0.297
GUUUGGACAGAGCACCACUGUCACCAAGGAGCCUGUGUGAGACACACUGCUGAGACUGCCUCUUGUUAAUGUCACCAUCACCUCAUCACUCAGGCAAAGAGGGGAAAAUC,0.583
UUAAAGGGGAAGUAUUAUUAUAAAAUGAAGAAAUAUGUAUUUCUAAAGGCUAUAUUGCUGUAAACUUAAUUGAUAAAGCUCUGUUUAAUUUAGAGUUUUGAAGAAAUAGU,0.476
UUGGCUAACCCCACUGAAGGCACAUUUCUAGAUGAUGCCGUGUGUGGUCAAUACAUUGCUUUCAUGUUUUAAAUUUAAGGAAAAAUUUUAUCUGAUAUUUUUCCAAAUUA,0.512

# Set 3
# Target: CCNE2, cyclin fold, Cln2 fusion (human)
# Method: yeast growth competition, sequencing
# Medium: yeast
# Setting: strong parent motif
# Baseline: not given
# Reading: higher = stronger binding
# Starting sequence: WEE1 docking peptide (human); HKTFRKLRLFDTP; partner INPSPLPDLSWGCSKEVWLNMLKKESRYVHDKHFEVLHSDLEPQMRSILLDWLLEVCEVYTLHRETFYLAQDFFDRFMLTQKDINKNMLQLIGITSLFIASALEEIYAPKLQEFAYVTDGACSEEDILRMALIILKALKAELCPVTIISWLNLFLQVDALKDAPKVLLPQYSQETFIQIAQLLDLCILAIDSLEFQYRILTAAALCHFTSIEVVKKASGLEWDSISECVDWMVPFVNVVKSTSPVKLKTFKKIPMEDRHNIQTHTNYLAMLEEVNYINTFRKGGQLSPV
Change,normalised enrichment score
T3Y,-0.741
T3A,0.475
R5G,0.276
K6A,1.13
R8Q,1.9
F4A,1.09
R8N,0.212
P13S,1.02
R5E,1.38
K6R,0.948
L9M,0.0922
L7M,-0.376
T3S,0.0482
L9F,0.694
K6N,0.761
T12K,0.685
T3V,2.31
D11V,0.681
H1V,-0.178
L7P,0.164

# Set 4
# Target: Ras GTPase-activating protein-binding protein 1, full length (G3BP1, Homo sapiens, UniProt Q13283)
# Sequence of UniProt Q13283 (whole entry, looked up): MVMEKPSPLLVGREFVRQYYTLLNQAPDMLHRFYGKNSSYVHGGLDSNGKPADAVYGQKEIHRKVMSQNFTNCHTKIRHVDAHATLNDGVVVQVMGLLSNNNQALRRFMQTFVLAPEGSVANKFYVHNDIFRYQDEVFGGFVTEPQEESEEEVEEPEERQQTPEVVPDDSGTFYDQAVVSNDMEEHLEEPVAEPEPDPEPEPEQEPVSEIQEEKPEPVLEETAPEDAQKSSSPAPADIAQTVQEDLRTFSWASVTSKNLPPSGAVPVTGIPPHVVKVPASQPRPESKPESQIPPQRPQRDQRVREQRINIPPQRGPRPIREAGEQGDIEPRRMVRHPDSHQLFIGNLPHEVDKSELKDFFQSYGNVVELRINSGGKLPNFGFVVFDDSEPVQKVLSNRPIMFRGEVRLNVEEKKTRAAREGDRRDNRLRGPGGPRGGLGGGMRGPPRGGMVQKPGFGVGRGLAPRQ
# Method: RNA Bind-n-Seq
# Form: RNA
# Medium: in vitro
# Tested at: 200 nM
# Setting: whole 134-nt RNA, ends assumed
# With: 150 mM KCl
# Baseline: input library
# Reading: higher = stronger binding
# Shared flanks, not repeated: GGGAGUUCUACAGUCCGACGAUC … UGGAAUUCUCGGGUGUCAAGG
Sequence,log2 enrichment
UGGCAGCGGCCAUGGACCGCUUCGUUUGGACCAGCGGCCUCCUGGAGAUCAACGAGACCCUGGUGAUCCAGCAGCGCGGGGUGCGAAUCU,-0.738
GUCCUGUGCUACACAUCGUAUGUACCGAAUCGGGCCCCCGGGCCCCCGGGGCCCCCGGGAAAGUAUUAUGUUACGCCGUUCGGAUCUGCA,-1.1
UUUGCAGGAUUAAUCACUCCUGAAGAUCGGAAAUAUGGAACAACAAAUCUUCACUUAGAUGUAUCUGAUGCAGCUAAUGUCAUGGUCUAU,-2.38
UCCUGUGCUACACAUCGUAUGUACCGAAUCAAACCCCCAAACCCCCCCAAACCCCCAAAAAAGUAUUAUGUUACGCCGUUCGGAUCUGCA,-0.134
GCUUAUGUAGACAUGAGGAAGAUUGGCAGUAGCCGGGGAAUGGUUUCUGCAUACCCUCGACAGCUAGAGUCAUUAAUCCGCUUAGCAGAA,-0.216
UCAAGUCCUGUGCUACACAUCGUAUGUACCGAAUCGUGUGUGUGUGUGUGUGUGUAAAGUAUUAUGUUACGCCGUUCGGAUCUGCACUUC,0.206
CAAGUCCUGUGCUACACAUCGUAUGUACCGAAUCGGGAAAGGGUUUUUGGGUGGGAAAGUAUUAUGUUACGCCGUUCGGAUCUGCACUUC,0.557
AAGUCCUGUGCUACACAUCGUAUGUACCGAAUCGGGUUUUGGUUUUGGUUUUGGGGAAAGUAUUAUGUUACGCCGUUCGGAUCUGCACUU,-1.1
UAACUUUAGAGGAGGAUCUGAUGGAUAUGGCAGUGGACGUGGAUUUCGGGAUGGCUAUAAUGGGUAUGGAGGAGGACCUGGAGGUGGCAA,0.172
CACAGACAACACGCACCCACACAGACACAGAGGGAAGGGGUUGGGAUGGGGACAGGUUGCACAGCAGGGCGGGGUAGGACCCCAGCCCCU,1.6
UGGGCAAUGUGUCGGCUGCAUGCACGAGCCAGGAACUGCGCAGCCUCUUCGAGCGCCGCGGACGCGUCAUCGAGUGUGACGUGGUGAAAG,-1.49
CACAGACAACACGCACCCACACAGACACAGAGGGAAGGGGUUUGGAUGGGGACAGGGUGCACAGCAGGGCGGGGUAGGACCCCAGCCCCU,1.73
CCUGUGCUACACAUCGUAUGUACCGAAUCAAAUUUUUUUAAACCCCCCCAAAUUUUUAAAAAAGUAUUAUGUUACGCCGUUCGGAUCUGC,0.145
AAGUCCUGUGCUACACAUCGUAUGUACCGAAUCGGGAGGGUUUUUGGGUUUUUGGGAAAGUAUUAUGUUACGCCGUUCGGAUCUGCACUU,-0.189

# Set 5
# Target: RING finger protein unkempt homolog, zinc fingers 1-6, GST-SBP tag (UNK, Homo sapiens, UniProt Q9C0B0, residues 30-357)
# Sequence of UniProt Q9C0B0 (30-357, looked up): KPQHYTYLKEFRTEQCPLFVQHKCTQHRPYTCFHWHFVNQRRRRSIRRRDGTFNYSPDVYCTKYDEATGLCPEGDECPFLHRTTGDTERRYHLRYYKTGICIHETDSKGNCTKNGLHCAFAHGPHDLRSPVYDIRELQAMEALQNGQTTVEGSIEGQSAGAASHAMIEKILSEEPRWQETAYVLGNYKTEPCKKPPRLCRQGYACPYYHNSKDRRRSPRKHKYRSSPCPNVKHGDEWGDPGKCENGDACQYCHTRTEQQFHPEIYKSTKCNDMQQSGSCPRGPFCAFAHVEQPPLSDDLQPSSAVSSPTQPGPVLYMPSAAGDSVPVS
# Method: RNA Bind-n-Seq
# Form: RNA
# Medium: in vitro
# Tested at: not given
# Setting: RNA with constant flanks, human-mouse chimeric sites, ends assumed
# Baseline: input RNA pool
# Reading: higher = stronger binding
# Shared flanks, not repeated: GGGAGUUCUACAGUCCGACGAUC … CAACAGAGGAUUGAGCAUCA
Sequence,bound/input enrichment [ratio]
CCCCAAUACCAUUUGCAGGUCUGGAACUGCACUCUCUUUUUUAAAAAACAUGUAUACAUUUUAGGGCUGUAGAUUUAUUUUCCUGGUUUCUUUUCCAAUUGCUGACUUUUGAGCACAGAA,2.43
AGAGAUAAGACAUCCAGGAACAUGCGAGGCUCCCGGAUGAAUGGGUUGCCUAGCCCCACUCAUAGUGCCCACUGUAGCUUCUACCGAACCAGAACCUUGCAGGCAUUGAGUAAUGAGAAG,0.181
UCUUAACUUAUUCAUUUCUUAUUUUUAUAUAGCUAGAUAAAUAUUGUUAGUCUUAGACAAUAGCUCACAUUUUUUGAAAAGCAUGCUCUCCCUGUCCAUUUGUCUUAUAACAUGACCCAG,167
UUGAAAAACACAGAUAUCAAAGUUGUUGACUUUGGAAGUGCAACGUAUGACGACGAACAUCACAGUACUUUGGUGUCUACCCGGCACUACAGAGCUCCCGAGGUCAUUUUGGCUUUAGGU,0.303
AUAGAUGAAAUUGAUGUGGACCAGGAAGGAAUUGCUGAAAUGAUCCUGGAUGAAAAUGCUAUUGCUCAGGUCCCACGCCCUGGAACGUCUUUGAAGCUCCCUGGAACUAACCAAACAGGA,0.511
CUGAGGAUACCACUGAAGAGACCUUAAAAGAAUCAUUUGAGGGCUCUGUUCGUGCAAGAAUAGUCACCUGACCGGGAAACUGGGUCCCCAAAGGGUUUGGUUUUGUAGACUUUAAUAGUG,0.747
UCUGGUCACACUCGUGUGUAUGGUGUUUGCUUUGUGGACACUUCACUGGGCAAGUUUUUCAUCGGCCAGUUUUCGGAUGAUCGCCAUUGUUCCAGAUUUAGGACUCUAGUGGCUCACUAU,0.132
UCUUAACUUAUUCAUUUAACUUAUUUUUAUAGCUAGAUAAAUAUUGUUAGUCUUAGAGAGUAGUUCACAUUUUUUGAGAAGCAUGCCCUCCCUAUCCAUUUGUCUUAUAACAUGACCCAG,5.19

# A few entries again (set 1):
Sequence,log fluorescence [z-score]
GATTTTTTTCATATATATATGTGCTAG,1.05
GAGGGTTTCGGGTATCGGGACGTGCTA,5.61
TCACTTCTGGACTGTTTGACTGTGCTA,0.414
TTAGGACTGAGGTATCGGTTAGTGCTA,0.797
TTAGAGTTCGGGTTTCGATTAGTGCTA,7.04
CTCTATTGCTTTCTCTTTCAGTGCTAG,0.831
ATAGGTTTCGACTATCGGTTAGTGCTA,5.68
GACGATATCAGTCTCGAGATGTGCTAG,0.646
TTAGTTTCCGGTTTCGGTTAGTGCTAG,12.8
TTATAACTGAGTATCGATTAGTGCTAG,1.02
